# Published values gathered from unrelated publications.
Structure (SMILES),sample,tested at,time,pH,setting,with,intrinsic clearance
CSCc1cn(-c2cccc(C(=O)N3CCC(c4nc(-c5ccccc5)n[nH]4)CC3)c2)nn1,human liver microsomes,,,pH 7.4,,NADPH,410 mL/min/kg
O=S(=O)(Nc1ccc(OC(F)(F)F)cc1)N1CCCC(C2c3ccc(F)cc3CCc3cc(F)ccc32)C1 (centres unmarked),liver microsomes,10 µM,,,,,237 µL/min/mg
CC(C)(C)C12CC(CN3CCN(C(c4ccccc4)c4ccc(Cl)cc4)CC3)(C1)C2 (centres unmarked),human liver microsomes,,,,,,~9 µL/min/mg
O=S(=O)(N[C@H]1CCO[C@@H](C2c3ccccc3CCc3ccccc32)C1)c1ccc(OC(F)(F)F)cc1,liver microsomes,10 µM,,,,,269 µL/min/mg
[2H]C1([2H])C[C@@H](C[C@@H](C#N)NC(=O)[C@@H]2[C@@H]3[C@H](CN2C(=O)[C@@H](NC(=O)C(F)(F)F)C(C)(C)C)C3(C)C)C(=O)N1,mouse liver microsomes,,,,scaled to liver,,354 mL/min/kg
CNC(=O)C1CCCN(C(=O)C2CC3CCC2N3C(=O)[C@@H]2C[C@@H](O)CN2C(=O)NCc2cccc(Cl)c2F)C1 (mixture of isomers),human liver microsomes,,,,,,26.1 µL/min/mg
O=C(O)Cc1ccccc1Nc1c(Cl)cccc1Cl,human liver microsomes,1 nM,,,,,127 µL/min/mg
[2H]C1([2H])CC[C@@H](C[C@@H](C#N)NC(=O)[C@@H]2[C@@H]3[C@H](CN2C(=O)[C@@H](NC(=O)C(F)(F)F)C(C)(C)C)C3(C)C)C(=O)N1,human liver microsomes,,,,scaled to liver,,35.1 mL/min/kg
Cc1ccc2c(c1)nc(NC(=O)c1cccc(C(F)(F)F)c1)n2[C@H]1CC[C@H](N)CC1,rat liver microsomes,,,,mean value,,184 µL/min/mg
CC(C)(C)[C@H](NC(=O)C(F)F)C(=O)N1C[C@H]2[C@@H]([C@H]1C(=O)N[C@H](C#N)C[C@@H]1CCCNC1=O)C2(C)C,mouse liver microsomes,,,,microsomes 0.5 mg/mL,,83.7 µL/min/mg
C/C(=N\OCCN(C)Cc1ccccc1)c1ccc(C(F)(F)F)cc1,human liver microsomes,1 µM,45 min,,,,118 mL/min/kg

# Excerpt of the above:
Structure (SMILES),sample,tested at,time,pH,setting,with,intrinsic clearance
C/C(=N\OCCN(C)Cc1ccccc1)c1ccc(C(F)(F)F)cc1,human liver microsomes,1 µM,45 min,,,,118 mL/min/kg
